Results from different studies.
Protocols differ between the studies behind these lines. “And” joins repeats or separate records; there may be more than shown. ± marks the error that the study gave.
Nuclear receptor subfamily 2 group C member 2 ligand-binding domain: Nuclear receptor subfamily 2 group C member 2, ligand-binding domain (Homo sapiens, UniProt P49116)
Chain of UniProt P11247 (whole entry, looked up): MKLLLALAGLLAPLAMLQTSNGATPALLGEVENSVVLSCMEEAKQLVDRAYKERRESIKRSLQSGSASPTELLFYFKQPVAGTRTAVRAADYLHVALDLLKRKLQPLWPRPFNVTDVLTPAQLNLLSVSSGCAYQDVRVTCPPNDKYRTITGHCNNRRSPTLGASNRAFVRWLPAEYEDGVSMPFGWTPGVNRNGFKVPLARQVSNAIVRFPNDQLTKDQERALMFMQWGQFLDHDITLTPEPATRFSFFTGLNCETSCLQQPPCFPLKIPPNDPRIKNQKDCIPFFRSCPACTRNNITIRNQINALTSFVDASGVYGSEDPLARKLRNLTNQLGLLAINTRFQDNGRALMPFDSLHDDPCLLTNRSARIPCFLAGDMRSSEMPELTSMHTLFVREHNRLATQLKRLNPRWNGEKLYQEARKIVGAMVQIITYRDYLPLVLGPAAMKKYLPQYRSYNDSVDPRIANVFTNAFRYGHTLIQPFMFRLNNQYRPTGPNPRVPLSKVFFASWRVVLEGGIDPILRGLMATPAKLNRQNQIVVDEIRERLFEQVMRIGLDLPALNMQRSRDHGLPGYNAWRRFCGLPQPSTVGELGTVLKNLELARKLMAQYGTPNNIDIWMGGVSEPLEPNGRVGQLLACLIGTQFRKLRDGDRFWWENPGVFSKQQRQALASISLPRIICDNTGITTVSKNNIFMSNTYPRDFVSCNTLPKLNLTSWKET
Chain of UniProt P49116 (whole entry, looked up): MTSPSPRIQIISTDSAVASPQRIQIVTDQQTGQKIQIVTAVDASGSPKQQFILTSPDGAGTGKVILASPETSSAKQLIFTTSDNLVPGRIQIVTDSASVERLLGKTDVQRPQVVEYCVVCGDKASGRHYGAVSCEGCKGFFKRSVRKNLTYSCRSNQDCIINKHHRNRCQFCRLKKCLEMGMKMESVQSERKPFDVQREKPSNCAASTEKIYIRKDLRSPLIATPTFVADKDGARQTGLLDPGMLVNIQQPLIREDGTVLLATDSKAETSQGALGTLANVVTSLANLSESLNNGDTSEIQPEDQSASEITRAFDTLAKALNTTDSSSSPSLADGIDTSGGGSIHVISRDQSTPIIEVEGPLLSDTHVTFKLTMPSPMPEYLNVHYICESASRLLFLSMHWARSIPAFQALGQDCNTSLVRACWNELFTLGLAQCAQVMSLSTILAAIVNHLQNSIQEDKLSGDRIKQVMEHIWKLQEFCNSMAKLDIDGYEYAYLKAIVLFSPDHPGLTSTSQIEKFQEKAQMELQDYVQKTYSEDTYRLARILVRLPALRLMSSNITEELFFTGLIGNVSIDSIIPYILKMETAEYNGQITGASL
Chain of UniProt Q8NEZ5 (whole entry, looked up): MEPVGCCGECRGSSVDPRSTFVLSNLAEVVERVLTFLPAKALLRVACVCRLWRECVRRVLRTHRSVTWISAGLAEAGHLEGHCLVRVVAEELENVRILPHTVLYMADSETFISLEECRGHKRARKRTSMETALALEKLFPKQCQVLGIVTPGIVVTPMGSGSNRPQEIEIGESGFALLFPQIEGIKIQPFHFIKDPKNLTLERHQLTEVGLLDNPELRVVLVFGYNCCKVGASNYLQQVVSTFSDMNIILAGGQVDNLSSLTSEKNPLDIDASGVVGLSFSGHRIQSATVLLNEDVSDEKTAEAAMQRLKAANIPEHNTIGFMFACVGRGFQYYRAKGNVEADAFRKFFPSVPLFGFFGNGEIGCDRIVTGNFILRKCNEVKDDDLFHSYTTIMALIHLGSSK
Chain of UniProt P21860 (whole entry, looked up): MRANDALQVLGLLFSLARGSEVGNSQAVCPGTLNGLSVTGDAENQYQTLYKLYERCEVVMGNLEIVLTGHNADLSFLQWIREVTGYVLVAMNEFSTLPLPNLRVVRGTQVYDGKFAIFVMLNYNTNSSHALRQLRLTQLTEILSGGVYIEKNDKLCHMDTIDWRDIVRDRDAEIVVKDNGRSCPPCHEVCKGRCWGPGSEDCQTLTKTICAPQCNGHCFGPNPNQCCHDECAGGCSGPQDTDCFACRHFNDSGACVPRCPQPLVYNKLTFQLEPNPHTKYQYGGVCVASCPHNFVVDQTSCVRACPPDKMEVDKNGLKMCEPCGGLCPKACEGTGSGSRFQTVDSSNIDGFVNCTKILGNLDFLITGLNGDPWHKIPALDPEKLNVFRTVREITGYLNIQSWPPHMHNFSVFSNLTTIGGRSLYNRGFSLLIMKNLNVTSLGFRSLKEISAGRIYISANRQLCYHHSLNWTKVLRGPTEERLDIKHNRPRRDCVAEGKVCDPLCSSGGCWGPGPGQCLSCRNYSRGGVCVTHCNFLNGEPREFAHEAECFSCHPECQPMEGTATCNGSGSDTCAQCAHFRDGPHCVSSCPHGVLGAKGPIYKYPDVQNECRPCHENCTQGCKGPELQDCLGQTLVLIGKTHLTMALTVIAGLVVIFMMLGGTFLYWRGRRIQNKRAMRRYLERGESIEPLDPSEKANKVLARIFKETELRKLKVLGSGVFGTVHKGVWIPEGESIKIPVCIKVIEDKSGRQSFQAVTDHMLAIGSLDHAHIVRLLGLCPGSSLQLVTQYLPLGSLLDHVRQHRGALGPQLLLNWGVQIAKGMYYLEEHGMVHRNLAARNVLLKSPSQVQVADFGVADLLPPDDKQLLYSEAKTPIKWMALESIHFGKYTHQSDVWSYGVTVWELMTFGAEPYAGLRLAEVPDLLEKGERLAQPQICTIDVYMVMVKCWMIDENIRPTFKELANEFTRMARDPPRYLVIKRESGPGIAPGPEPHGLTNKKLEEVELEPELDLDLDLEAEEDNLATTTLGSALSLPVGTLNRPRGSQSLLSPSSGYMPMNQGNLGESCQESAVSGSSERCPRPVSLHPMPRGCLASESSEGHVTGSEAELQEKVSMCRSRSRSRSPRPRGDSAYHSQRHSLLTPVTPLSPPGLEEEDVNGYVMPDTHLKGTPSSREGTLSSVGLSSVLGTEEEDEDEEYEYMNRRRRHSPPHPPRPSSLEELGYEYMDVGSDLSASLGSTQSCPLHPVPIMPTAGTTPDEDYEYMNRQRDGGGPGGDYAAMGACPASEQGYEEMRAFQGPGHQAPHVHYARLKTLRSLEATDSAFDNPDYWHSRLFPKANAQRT
Chain of UniProt P04746 (whole entry, looked up): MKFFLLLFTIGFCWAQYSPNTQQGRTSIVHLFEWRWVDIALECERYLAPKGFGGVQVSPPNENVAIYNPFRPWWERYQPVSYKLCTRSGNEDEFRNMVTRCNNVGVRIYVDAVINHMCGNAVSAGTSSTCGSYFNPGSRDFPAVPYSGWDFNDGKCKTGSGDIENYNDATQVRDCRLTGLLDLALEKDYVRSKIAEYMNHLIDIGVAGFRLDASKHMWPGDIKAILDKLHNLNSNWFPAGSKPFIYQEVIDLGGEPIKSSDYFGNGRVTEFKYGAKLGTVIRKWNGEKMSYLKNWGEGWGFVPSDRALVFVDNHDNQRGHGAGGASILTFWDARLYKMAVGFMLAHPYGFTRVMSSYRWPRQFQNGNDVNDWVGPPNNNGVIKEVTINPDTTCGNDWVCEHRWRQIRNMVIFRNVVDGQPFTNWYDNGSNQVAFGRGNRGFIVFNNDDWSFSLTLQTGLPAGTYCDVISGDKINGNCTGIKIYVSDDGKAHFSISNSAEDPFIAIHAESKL
Chain of UniProt Q16774 (whole entry, unmodified, looked up): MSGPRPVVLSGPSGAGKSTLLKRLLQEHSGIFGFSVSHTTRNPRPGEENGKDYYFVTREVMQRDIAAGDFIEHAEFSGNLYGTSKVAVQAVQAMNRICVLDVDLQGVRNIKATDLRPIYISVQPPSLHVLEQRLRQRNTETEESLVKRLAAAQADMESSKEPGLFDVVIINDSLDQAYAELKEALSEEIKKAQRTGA

Compound = C[S+](CC[C@H](N)C(=O)O)C[C@H]1O[C@@H](n2cnc3c(N)ncnc32)[C@H](O)[C@@H]1O (some centres unmarked); target or system = O-methyltransferase (Sorghum bicolor, UniProt A0A1B6PFV1); assay = isothermal titration calorimetry; conditions = concentration not given, apo protein; endpoint = binding stoichiometry; result = 1.84 ± 0.118 sites
Compound = CC[C@H](C)[C@@H]1NC(=O)[C@H]([C@@H](C)O)NC(=O)[C@@H]2CCCN2C(=O)[C@H](CC(C)C)NC(=O)[C@H](Cc2ccc(O)cc2)NC(=O)CSC[C@@H](C(N)=O)NC(=O)[C@H](CC(C)C)NC(=O)[C@@H]2CCCN2C(=O)[C@H](Cc2c[nH]cn2)NC(=O)[C@H](Cc2c[nH]c3ccccc23)NC(=O)[C@H](CC(C)C)NC(=O)[C@H](Cc2c[nH]cn2)NC(=O)CNC(=O)[C@H](C(C)C)NC(=O)CNC(=O)[C@H]([C@@H](C)O)NC1=O; target or system = VPS35/VPS29 (Homo sapiens, UniProt Q96QK1+Q9UBQ0); assay = binding, ITC; conditions = 25 °C, heterodimer; endpoint = ΔG; result = -8.4 ± 0.08 kcal/mol
Compound = CC1CCCN(C(=O)c2cc3ncccn3n2)C1 (centres unmarked); target or system = F-box only protein 22, with SKP1 (Homo sapiens, UniProt Q8NEZ5); assay = binding, affinity selection mass spectrometry; how to read = relative to: other proteins in batch; endpoint = log fold enrichment; result = -0.0889
Compound = CN1C(C(=O)Nc2ccccn2)=C(O)c2sc(Cl)cc2S1(=O)=O; target or system = COS-7; conditions = 30 µM, 24 h, 0.1% DMSO, unit not given; how to read = relative to: vehicle control; endpoint = confluence; result = 0.97 ± 0.02
Compound = CC[C@H](C)[C@H](NC(=O)[C@H](CCC(=O)O)NC(=O)[C@H](CCC(=O)O)NC(=O)[C@@H]1CCCN1C(=O)[C@H](CC(=O)O)NC(=O)[C@H](C)NC(=O)[C@H](CCC(N)=O)NC(=O)[C@@H](NC(=O)[C@H](C)NC(=O)[C@@H](NC(=O)[C@H](CO)NC(=O)[C@@H](NC(=O)[C@H](CCCCN)NC(=O)[C@@H](N)Cc1ccc(O)cc1)[C@@H](C)O)C(C)C)[C@@H](C)O)C(=O)N[C@H](C(=O)N[C@H](C(=O)N[C@@H](CC(C)C)C(=O)N[C@@H](COP(=O)(O)O)C(=O)N[C@@H](CC(=O)O)C(=O)N[C@@H](COP(=O)(O)O)C(=O)N[C@@H](CC(=O)O)C(=O)O)C(C)C)[C@@H](C)CC; target or system = Small ubiquitin-related modifier 1 (Homo sapiens, UniProt P63165, C52A); assay = isothermal titration calorimetry; conditions = pH 7.4, SUMO1 construct; endpoint = -TΔS; result = -9.89 ± 0.43 kcal/mol
Compound = C=CC(=O)N1CCN(c2nc(OC[C@@H]3CCCN3C)nc3c(F)c(-c4nc(N)cc(C)c4C(F)(F)F)c(Cl)cc23)[C@@H](C)C1; target or system = GTPase KRas, GDP-bound (KRAS, Homo sapiens, UniProt P01116, Q61H); assay = SPR; endpoint = dissociation rate constant koff; result = 0.106 ± 0.006 s⁻¹
Compound = Nc1ncnc2c1ncn2[C@@H]1O[C@H](COP(=O)(O)OP(=O)(O)O)[C@@H](O)[C@H]1O; target or system = GUK1 (Homo sapiens, UniProt Q16774); assay = binding, isothermal titration calorimetry; conditions = molar ratio 1.319, fitted curve; endpoint = ΔH; result = -0.898 kcal/mol
Compound = COc1cc(-c2cc(C(C)=O)n3ccccc23)cc(OC)c1Cn1ccnc1; target or system = Bromodomain testis-specific protein, BD1 (BRDT, Homo sapiens, UniProt Q58F21); endpoint = ΔTm; result = 2.8 °C
Compound = CC1(C)S[C@@H]2[C@H](NC(=O)[C@H](NC(=O)N3CCNC3=O)c3ccccc3)C(=O)N2[C@H]1C(=O)O; target or system = Nuclear receptor subfamily 2 group C member 2 ligand-binding domain; assay = SPR imaging; conditions = 600 nM; endpoint = koff; result = 9.28e-07 s⁻¹
Compound = Oc1ccc([C@@H]2c3c(O)cc(O)cc3[C@@H]3c4c(cc(O)c5c4[C@@H]2[C@H](c2ccc(O)cc2)[C@H]5c2cc(O)cc4c2[C@@H](c2cc(O)cc(O)c2)[C@H](c2ccc(O)cc2)O4)O[C@H]3c2ccc(O)cc2)cc1; target or system = Pancreatic alpha-amylase (Homo sapiens, UniProt P04746); assay = enzyme activity; conditions = 5 µM; endpoint = Vmax; result = 1370 ± 182 µmol/min
Compound = CCCC[C@H]1CN(c2cccc(OC(F)(F)F)c2)C(=O)CN1Cc1cncn1Cc1ccc(F)cc1; target or system = Cryptococcus neoformans farnesyltransferase; assay = enzyme activity, inhibitor, fluorescence; conditions = together with: 1 µM FPP, 0.5 µM dansylated peptide; endpoint = IC50; result = 710 ± 240 nM
Compound = CC(C)OCCn1c(=S)[nH]c(=O)c2[nH]ccc21; target or system = Myeloperoxidase (Mus musculus, UniProt P11247); assay = ELISA, item: myeloperoxidase; system = mice, zymosan or thioglycolate peritonitis, peritoneal lavage; conditions = 60 mg/kg; endpoint = protein level; result = 2370 ng/mL and 2450 ng/mL and 982 ng/mL
Compound = C=CC(=O)N1CCC[C@@H](n2nc(-c3ccc(Oc4ccccc4)cc3)c3c(N)ncnc32)C1; target or system = ERBB3 (Homo sapiens, UniProt P21860); conditions = 1 µM; endpoint = remaining activity; result = 206%
Compound = COCCOCc1ccc(-c2cc3onc(-c4ccccc4)c3c(=O)n2C)cc1; target or system = COS-7; conditions = 10 µM, 24 h, 0.1% DMSO, unit not given; how to read = relative to: vehicle control; endpoint = apoptotic cells; result = 1.03 ± 0.05
Compound = O=C(O)c1ccc(Nc2ncc3c(n2)-c2ccc(Cl)cc2C(c2c(F)cccc2F)=NC3)cc1; target or system = human TAK1(h); assay = kinase activity; conditions = 1 µM; endpoint = remaining activity; result = 111%
Compound = C[C@H](N)C(=O)N[C@@H](CCCNC(=N)N)C(=O)N[C@H](C(=O)N[C@@H](C)C(=O)N[C@@H](CCC(N)=O)C(=O)N[C@H](C(=O)N[C@@H](C)C(=O)N[C@@H](CCCNC(=N)N)C(=O)N[C@@H](CCCCN)C(=O)N[C@@H](CO)C(=O)O)[C@@H](C)O)[C@@H](C)O; target or system = Transcriptional regulator ATRX (ATRX, Homo sapiens, UniProt P46100, F284Y/K251R); assay = isothermal titration calorimetry; conditions = concentration not given, pH 7.5, 25.0 °C; endpoint = binding enthalpy; result = -4.7 kcal/mol
Compound = CCN1CCCC1CNC(=O)c1cc(S(=O)(=O)CC)c(N)cc1OC (centres unmarked); target or system = Nuclear receptor subfamily 2 group C member 2 ligand-binding domain; assay = SPR imaging; conditions = 600 nM; endpoint = koff; result = 2.99e-07 s⁻¹

Excerpt of the above:
Compound = CC[C@H](C)[C@H](NC(=O)[C@H](CCC(=O)O)NC(=O)[C@H](CCC(=O)O)NC(=O)[C@@H]1CCCN1C(=O)[C@H](CC(=O)O)NC(=O)[C@H](C)NC(=O)[C@H](CCC(N)=O)NC(=O)[C@@H](NC(=O)[C@H](C)NC(=O)[C@@H](NC(=O)[C@H](CO)NC(=O)[C@@H](NC(=O)[C@H](CCCCN)NC(=O)[C@@H](N)Cc1ccc(O)cc1)[C@@H](C)O)C(C)C)[C@@H](C)O)C(=O)N[C@H](C(=O)N[C@H](C(=O)N[C@@H](CC(C)C)C(=O)N[C@@H](COP(=O)(O)O)C(=O)N[C@@H](CC(=O)O)C(=O)N[C@@H](COP(=O)(O)O)C(=O)N[C@@H](CC(=O)O)C(=O)O)C(C)C)[C@@H](C)CC; target or system = Small ubiquitin-related modifier 1 (Homo sapiens, UniProt P63165, C52A); assay = isothermal titration calorimetry; conditions = pH 7.4, SUMO1 construct; endpoint = -TΔS; result = -9.89 ± 0.43 kcal/mol
Compound = COCCOCc1ccc(-c2cc3onc(-c4ccccc4)c3c(=O)n2C)cc1; target or system = COS-7; conditions = 10 µM, 24 h, 0.1% DMSO, unit not given; how to read = relative to: vehicle control; endpoint = apoptotic cells; result = 1.03 ± 0.05
